Measured values collected from several papers.
A part holds a random share of what one study measured. Substitutions count along the parent as printed.

Block 1
Target: CCND1, cyclin fold, Cln2 fusion (human)
Technique: yeast growth competition, sequencing
Medium: yeast
Setting: weak parent motif
Reference: not given
Reading: higher = stronger binding
Starting sequence: SLBP docking peptide (human); ARYKRKLLINDFG
Change | normalised enrichment score
ARYKRKLLINDFC [G13C] | 0.165
ARYKRKLLINKFG [D11K] | 0.345
ADYKRKLLINDFG [R2D] | 0.45
ARYKRKLLINDFH [G13H] | 0.0758
ARYKRKLLINEFG [D11E] | 0.00169
ARYKRKLLIYDFG [N10Y] | 0.298
ARYKRKLLINDFR [G13R] | -0.475
ARRKRKLLINDFG [Y3R] | -0.339
ARYKRALLINDFG [K6A] | 0.286
ARYKRNLLINDFG [K6N] | 0.39
ARYKRKLCINDFG [L8C] | -0.452

Block 2
Target: RNA binding protein fox-1 homolog 2, RRM domain, GST-SBP tag (RBFOX2, Homo sapiens, UniProt O43251-10, residues 100-194)
Technique: RNA Bind-n-Seq
Molecule type: RNA
Medium: in vitro
Tested at: 365 nM
Setting: natural RNA segment, single round, ends assumed
Reference: no-protein control
Reading: higher = stronger binding
All sequences stand within: GGGAGUUCUACAGUCCGACGAUC … UGGAAUUCUCGGGUGCCAA
Residues (chain): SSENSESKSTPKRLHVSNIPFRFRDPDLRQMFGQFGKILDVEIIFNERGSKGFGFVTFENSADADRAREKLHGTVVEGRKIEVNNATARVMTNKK
Strand | RBNS enrichment (R)
GGCUUUUUCAUUGAGGGCCUAAAGUAAUCGCGCUAAGAAUAAAGGGAAAACGGCGUCGCCCUCAUUUCAACCCCACUCCUACCCCCUUCCUCAACCCCCAAACAAAACAA | 0.419
GCUUCGCUAAUAUUUUAAACAGUCCUGUAAAAACCCACCAAGGACUUUUUGUAUAGAAAGCACUACCCUAAGCCAUGAGGAUCUCCAUGCUUUGCUAACCAAGAUAACUG | 0.518
AGUUCUAGGGAGUGAGACAUUUUUGGGAGCAGAGGAAAACUCUGCUGAUGUUCGGUCCUGGCAAACAUUGAGUUAUUUUGAGCUGUGAAGGCAGUCGUCUCUGUUACACA | 0.706
AGGAAUUUGAACCAUAAAACACUAUCUGAUGCACAGAACACCUCUACUUUGAGACUCACCUCUCAUAAAGCUUCUUUUUCACAUUACUGUUAAAGACCAGACGUUCUAGA | 0.361
CUGUUCAGUUUAAAAUACUGUAGAUAAUUAACCAAGGUAGAAUGACCUUGUAAUGUAACUGCUCUUGGGCAAUAUUCUCUGUACAUAUUAGCGACAACAGAUUGGAUUUU | 1.13
AUAGAGGCAAGGGGUUACUGUGUGAAUCCCGGCUCCCUUCCACAUGCUGUACACCCUAUCCAUCUGUCAGGAGCUGGGGCAAGGAGCCAGAACCCUCUGCGCCUUGAGAU | 0.392
UGCUUAUAAAGCUUAAUUCUGAUAUUAUCCUCUUACUACCUACAGUAUGUUUUGCAAAAAUCAGUCCACUUAGCAAACUAAUCUUUGUAAAGCAGUCAGUUUCAGAAGAU | 0.424
GGGGGAGAGCCCCCCAGCUUCCUGCCACAGAGCACAGGCCUGUAUGUAGCUCAUAGUCCCCACAAUGUCCUGGGAAGGAACAGAGGACUGGUACAGUCCCAGCUCUGCUC | 0.577
AGGUGGAGGCAUCAAUCUGUUGGGUUCUGGUUCCCGGCUGCCUUUGGUUUUGAAAGUCUCUUCUCUGUAUAUUCCUACCCUGCAUUUGCUUUGUGUGGUGCUGAUGCUGU | 1.21
CCAUGAAGCCAGGCAGGACACAGUGCAGCUUGGGUGACAUCUGACCAUCACAGUACCAGCCACUGGUCACUCUGACCCUGCUUUGCCAAGAGUCCUUUCUCAGACAACUG | 0.35
CACCUCCCACAAUUUAGGCCGAAGCUAAUAUCCCAGAAAGACUAUAUAUUGUUUGUUUGUUUGUUUGUUGACAGAGAAAAAUUGGUAUUUAUUUUUCUAUUAUAGCCAUA | 21.9
UGCGGCAAGGUCCCAGCGGUCGCUGGGAGACAGAAGGUUUUGUGCCCUGCUGUAUCAUAAAGCACACACUUAGCGCUCUGGAGCCGGACGGUGGCUCCACCACUUCCGCA | 0.778

Block 3
Target: ABI1, truncated, D143A, DHFR fusion (Arabidopsis thaliana)
Technique: DHFR PCA, deep sequencing
Medium: yeast
Setting: methotrexate growth selection, single substitutions
Together with: (+)-ABA 2500 µM
Reference: wild-type fitted maximum
Reading: higher = stronger binding
Starting sequence: PYL1, truncated, DHFR fusion (Arabidopsis thaliana); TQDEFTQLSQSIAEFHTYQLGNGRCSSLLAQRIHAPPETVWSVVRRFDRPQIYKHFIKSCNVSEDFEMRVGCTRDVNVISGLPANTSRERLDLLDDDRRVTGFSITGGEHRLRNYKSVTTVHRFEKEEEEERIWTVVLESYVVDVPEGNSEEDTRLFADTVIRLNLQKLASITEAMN; partner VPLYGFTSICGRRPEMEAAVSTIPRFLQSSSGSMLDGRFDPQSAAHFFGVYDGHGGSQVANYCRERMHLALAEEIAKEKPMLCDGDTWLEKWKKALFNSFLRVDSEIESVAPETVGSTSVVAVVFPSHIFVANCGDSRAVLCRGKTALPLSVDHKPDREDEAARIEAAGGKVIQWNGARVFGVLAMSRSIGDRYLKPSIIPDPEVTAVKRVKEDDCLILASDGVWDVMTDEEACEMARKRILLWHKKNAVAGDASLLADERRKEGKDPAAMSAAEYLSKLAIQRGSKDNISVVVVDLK
Change | relative binding score [%]
K126P | 103
S87H | 31
D65W | 91.5
N85M | 95.1
S63E | 91.8
E125K | 103
F5W | 104
F47N | 6.1
F56M | 93.6

Other studies, line by line
Substance | target | assay | test system | conditions | how to read | quantity | result
PhoQ, residues 284 288 289 292 302 303 SSCLAV | PhoP, residues 12 14 15 18 19 AWHSL (Escherichia coli, UniProt P23836) | Sort-seq, measured: YFP reporter | E. coli | PhoQ-PhoP variant library, together with: 10 µM Mg2+ | reference: high Mg2+ state, higher = stronger signaling | fold induction | 3.02
